{"data": "Experimental data collected from several papers", "note": "Lines come from different studies, so protocols differ. “And” joins repeats or separate records; there may be more than shown. ± gives the spread as reported."}
{"Structure (SMILES)": "CO[C@@H]1[C@@H](OC(N)=O)[C@@H](O)[C@H](Oc2ccc3c(O)c(NC(=O)c4ccc(O)c(CC=C(C)C)c4)c(=O)oc3c2C)OC1(C)C", "cell line": "HCT-116 BRCA2-/-", "conditions": "250 µM, replicate 2", "measurement": "colony count", "result": 0.1}
{"Structure (SMILES)": "CNS(=O)(=O)Nc1nccc(Cc2c(C)c3ccc(Oc4ncccc4F)cc3oc2=O)c1F", "cell line": "NCI-H727", "assay": "cell viability", "conditions": "7 days", "measurement": "IC50", "result": "0.001 µM"}
{"Structure (SMILES)": "COc1ccccc1-c1ccncc1C(=O)Nc1nnc(OCc2ccc(Cl)cc2)s1", "cell line": "MDA-MB-436", "conditions": "1.5 µM", "measurement": "colony count", "result": "13.5 and 9.5 and 12.5"}
{"Structure (SMILES)": "CN1CCCNC(=O)c2cccc(c2)C(=O)NCCCN(C)CCCNc2cccc3c2C(=O)c2cccc(c2C3=O)NCCC1", "cell line": "SAS", "assay": "RNA-Seq, item: WTAP mRNA", "conditions": "1 µM, 6 h", "how to read": "baseline: untreated cells", "measurement": "log2 fold change", "result": -0.799}
{"Structure (SMILES)": "O=C(N1CCCC1)n1cc(-c2ccc(-c3ccccc3)cc2)nn1", "cell line": "mouse T cells", "assay": "N-terminal labelling proteomics, item: ARHGEF2 N-terminal peptides", "conditions": "0.001 µM, 6 h", "how to read": "baseline: DMSO", "measurement": "SILAC ratio", "result": 1.18}
{"Structure (SMILES)": "COC(=O)c1cc(NC2=NC(=O)C(=Cc3ccc(N(C)C)cc3)S2)ccc1OC(C)=O", "cell line": "MCF7", "assay": "GC-MS, item: Oleic acid", "conditions": "1 µM", "how to read": "baseline: DMSO", "measurement": "metabolite level", "result": "0.25 fold change"}
{"Structure (SMILES)": "COC(=O)[C@@]1(C(C)C)C=C(C(=O)Nc2cccc(C(=O)Nc3ccc(Nc4nccc(-c5cccnc5)n4)c(C)c3)c2)C(=O)CC1", "cell line": "HEK293 AP1 reporter", "assay": "AP1 reporter gene, inhibitor", "conditions": "10 µM, 6 h, unit not given, added: PMA", "how to read": "baseline: PMA alone", "measurement": "reporter activity", "result": 0.273}
{"Structure (SMILES)": "C=Cc1c(C)c2cc3nc(c(CC(=O)OCCOCCOCCOC)c4[nH]c(cc5nc(cc1[nH]2)C(C)=C5CC)c(C)c4C(=O)OCCOCCOCCOC)[C@@H](CCC(=O)OCCOCCOCCOC)[C@@H]3C", "cell line": "OVCAR-5", "assay": "MTT", "conditions": "0.1 µM, added: D-mannitol 30 mM", "how to read": "baseline: compound alone", "measurement": "reduction of phototoxicity", "result": "~8%"}
{"Structure (SMILES)": "O=C(NCc1cc(F)cc(F)c1)[C@@]1(O)CCN(c2ccc3[nH]ccc3c2)C1=O", "cell line": "CNS PDX-derived tumour cells", "assay": "colony formation, soft agar clonogenic", "conditions": "concentration not given, 8-10 days", "measurement": "maximal inhibition", "result": "52%"}
{"Structure (SMILES)": "CCN(CC)CC(=O)Nc1cccc(-n2cc(-c3ccc4ccc(-c5cn(-c6cccc(NC(=O)CN(CC)CC)c6)nn5)cc4c3)nn2)c1", "cell line": "RCC4", "assay": "PCR angiogenesis array, item: TGFB2", "conditions": "5 x IC50, 4 h, normoxia", "how to read": "baseline: untreated", "measurement": "fold regulation", "result": "-1.28 fold"}
{"Structure (SMILES)": "CCn1nc(Cl)c2c1-c1cnc(N)c(c1)O[C@H](C)c1cc(F)ccc1-c1nn(C)cc1C2", "cell line": "Ba/F3 EML4-ALK variant 1 S1206F", "assay": "cell viability", "measurement": "Emax", "result": "100%"}
{"Structure (SMILES)": "Fc1ccc(Nc2nc(NC3CCCCC3)c3ccccc3n2)cc1F", "cell line": "transfected HEK293 cells", "assay": "β-arrestin2 recruitment, negative allosteric modulator, BRET", "conditions": "30 min pre-incubation, β1AR ECL1/2 chimera, added: isoproterenol 1 µM", "how to read": "baseline: isoproterenol alone", "measurement": "Imax", "result": "-13%"}
{"Structure (SMILES)": "O=C(NCCCSc1ccc2c(/C=C/c3ccccn3)n[nH]c2c1)c1ccc(Cl)c(C(F)(F)F)c1", "cell line": "Ba/F3 TEL-VEGFR2", "assay": "cell growth, CCK-8", "measurement": "GI50", "result": "0.19 µM"}
{"Structure (SMILES)": "COc1cccc(OC)c1-c1cc(C(=O)NC2(C(=O)O)C3CC4CC(C3)CC2C4)nn1-c1ccc(C(=O)NCCNC(=O)[C@H](CCCCNC(=O)[C@H](CC(C)C)NC(=O)C2OC2C(=O)O)NC(=O)CN2CCN(CC(=O)[O-])CCN(CC(=O)[O-])CCN(CC(=O)[O-])CC2)cc1C(C)C.[177Lu+3] (mixture of isomers)", "cell line": "HT-29", "conditions": "concentration not given, 60 min", "how to read": "baseline: added activity", "measurement": "surface-bound fraction", "result": "1.26 ± 0.17%"}
{"Structure (SMILES)": "C=CC(=O)N1[C@H](c2ccc3c(c2)OCO3)c2[nH]c3ccccc3c2C[C@@H]1C(=O)NC", "cell line": "rat DRG neurons", "conditions": "0.004572 µM, 48 h, added: vincristine 40 nM", "measurement": "neuron degeneration", "result": "79.9% and 82.3%"}
{"Structure (SMILES)": "O=C(Nc1ccccc1)c1cccc([C@@H]2C[C@H]2NC2CCC2)c1 (racemic)", "cell line": "SET-2", "assay": "cell growth, CellTiter-Glo", "conditions": "1 µM, 7 d", "how to read": "baseline: vehicle", "measurement": "relative growth", "result": "105% and 90.3% and 97.2%"}
{"Structure (SMILES)": "CCCCCCc1cccc([C@H](O)C[C@H](CO)NC(=O)CCCCCCCCCCBr)c1", "cell line": "HeLa", "assay": "CERT activity, HPLC-MS/MS lipidomics", "conditions": "1 µM, 24 h, not cell-number normalised", "measurement": "total ceramide level", "result": "62300 pmol/sample and 57300 pmol/sample and 51600 pmol/sample"}
{"Structure (SMILES)": "CN(CCCN1CCN(C(=O)[C@H](CCCCNC(=O)CC[C@H](C(=O)O)N2CCN(CC(=O)O)CCN(CC(=O)O)CC2)NC(=O)CCOCCOCCOCCOCCN)CC1)c1ccc2nccc(C(=O)NCC(=O)N3CC(F)(F)C[C@H]3C#N)c2c1", "cell line": "HT-1080 cells expressing human FAP", "assay": "flow cytometry", "conditions": "0.2 µM, anti-La mAb detection, 200 nM", "measurement": "binding", "result": "1.52%"}
{"Structure (SMILES)": "CC(C)c1ccc(N(C)c2ccc3c(c2)OCC[C@H]3CNc2cnccc2C(=O)O)cc1", "cell line": "NCI-H2172", "assay": "cell growth or viability, ATP luminescence", "conditions": "7 days", "measurement": "IC50", "result": "0.133 µM"}
{"Structure (SMILES)": "Cc1ncsc1-c1ccc(C(C)NC(=O)C2CC(O)CN2C(=O)C(NC(=O)CCCCCCCCCCN2CCCC(Nc3ncc(Cl)c(Nc4ccccc4S(=O)(=O)C(C)C)n3)C2)C(C)(C)C)cc1 (stereo not shown)", "cell line": "22Rv1", "assay": "RNA-seq, item: ZNF391 mRNA", "conditions": "concentration not given", "how to read": "baseline: DMSO", "measurement": "log2 fold change", "result": -1.78}
{"Structure (SMILES)": "O=C(NCCSc1ccc2c(/C=C/c3ccccn3)n[nH]c2c1)Nc1ccc(F)c(F)c1", "cell line": "Ba/F3 TEL-VEGFR3", "assay": "cell growth, CCK-8", "measurement": "GI50", "result": "0.96 µM"}
{"Structure (SMILES)": "Cn1ncc2cc(-c3cncc(Cl)c3N3CCC4(CCNC4=O)CC3)ccc21", "cell line": "LS174T", "assay": "gene expression, microarray, item: IL17C mRNA", "conditions": "concentration not given, 4 h", "how to read": "baseline: untreated cells", "measurement": "log2 fold change", "result": -2.31}
{"Structure (SMILES)": "Fc1ccc(Nc2nc(NC3CCCCC3)c3cc(Br)ccc3n2)cc1F", "cell line": "transfected HEK293 cells", "assay": "β-arrestin2 recruitment, negative allosteric modulator, BRET", "conditions": "30 min pre-incubation, β1AR ECL1/2 chimera, added: isoproterenol 1 µM", "how to read": "baseline: isoproterenol alone", "measurement": "Imax", "result": "-0.1%"}
{"Structure (SMILES)": "CNC(NN=Cc1ccc([N+](=O)[O-])o1)=[S+][Au-][Cl]", "cell line": "CAKI-1", "assay": "annexin V/PI flow cytometry", "conditions": "10 µM, 72 h", "measurement": "cell fraction ANV−/PI+", "result": "2 ± 0.2%"}
{"Structure (SMILES)": "O=C1C2=C(NC(c3ccccc3)C(c3ccccc3)N2)C(=O)c2ccccc21 (stereo not shown)", "cell line": "γ-carboxylation reporter cells", "assay": "vitamin K-dependent γ-carboxylation", "conditions": "10 µM, 24 h, added: vitamin K 5 µM", "how to read": "baseline: DMSO", "measurement": "reporter protein carboxylation", "result": "< 5%"}
{"Structure (SMILES)": "COc1cc(N2CCN(C(=O)C3CCCN3)CC2)ccc1Nc1ncc(Cl)c(Nc2ccccc2P(C)(C)=O)n1 (stereo not shown)", "cell line": "NCI-H3122", "assay": "CCK-8", "conditions": "100 nM, 48 h", "measurement": "viability", "result": "30%"}
{"Structure (SMILES)": "CCOc1cncc(-c2ccc(NC(=O)C3(c4ccnc(NS(=O)(=O)C5CC5)n4)CCOCC3)nc2)n1", "cell line": "DND-39", "assay": "cell proliferation, CellTiter-Glo", "conditions": "72 h, lymphoid haematological cancer", "measurement": "IC50", "result": "0.084 µM"}
{"Structure (SMILES)": "COC(=O)c1cc(NC2=NC(=O)C(=Cc3ccc(C)cc3)S2)ccc1OC(C)=O", "cell line": "MCF7", "assay": "GC-MS, item: L-Cysteine", "conditions": "1 µM", "how to read": "baseline: DMSO", "measurement": "metabolite level", "result": "-0.46 fold change"}
{"Structure (SMILES)": "Cc1nc2c(F)cc(-c3nc(Nc4ccc(CNC(=O)CCCCCC(=O)NO)cc4)ncc3F)cc2n1C(C)C", "cell line": "OVCAR-5", "assay": "cell growth or viability, CCK-8", "conditions": "0.3 µM, 48 h", "measurement": "inhibition", "result": "93.2%"}
{"Structure (SMILES)": "CCCCCCc1cccc(C(O)CC(CO)NC(=O)CCCCCCCCCCNC(C)=O)c1 (stereo not shown)", "cell line": "HeLa", "assay": "CERT activity, HPLC-MS/MS lipidomics, item: ceramide 24:1", "conditions": "1 µM, 24 h, not cell-number normalised", "measurement": "ceramide level", "result": "18700 pmol/sample and 20800 pmol/sample and 18900 pmol/sample"}
{"Structure (SMILES)": "CCC(=CCc1c(O)cc2c(c1O)C(=O)CC(c1ccc(O)cc1)O2)CC (stereo not shown)", "cell line": "HeLa", "assay": "flow cytometry", "conditions": "12 µM, 48 h", "measurement": ">G2 cells", "result": "11.8 ± 0.25%"}
{"note": "Repeated from above:"}
{"Structure (SMILES)": "O=C(NCCSc1ccc2c(/C=C/c3ccccn3)n[nH]c2c1)Nc1ccc(F)c(F)c1", "cell line": "Ba/F3 TEL-VEGFR3", "assay": "cell growth, CCK-8", "measurement": "GI50", "result": "0.96 µM"}
{"Structure (SMILES)": "Cn1ncc2cc(-c3cncc(Cl)c3N3CCC4(CCNC4=O)CC3)ccc21", "cell line": "LS174T", "assay": "gene expression, microarray, item: IL17C mRNA", "conditions": "concentration not given, 4 h", "how to read": "baseline: untreated cells", "measurement": "log2 fold change", "result": -2.31}
{"Structure (SMILES)": "Fc1ccc(Nc2nc(NC3CCCCC3)c3cc(Br)ccc3n2)cc1F", "cell line": "transfected HEK293 cells", "assay": "β-arrestin2 recruitment, negative allosteric modulator, BRET", "conditions": "30 min pre-incubation, β1AR ECL1/2 chimera, added: isoproterenol 1 µM", "how to read": "baseline: isoproterenol alone", "measurement": "Imax", "result": "-0.1%"}
{"Structure (SMILES)": "CNC(NN=Cc1ccc([N+](=O)[O-])o1)=[S+][Au-][Cl]", "cell line": "CAKI-1", "assay": "annexin V/PI flow cytometry", "conditions": "10 µM, 72 h", "measurement": "cell fraction ANV−/PI+", "result": "2 ± 0.2%"}
{"Structure (SMILES)": "O=C1C2=C(NC(c3ccccc3)C(c3ccccc3)N2)C(=O)c2ccccc21 (stereo not shown)", "cell line": "γ-carboxylation reporter cells", "assay": "vitamin K-dependent γ-carboxylation", "conditions": "10 µM, 24 h, added: vitamin K 5 µM", "how to read": "baseline: DMSO", "measurement": "reporter protein carboxylation", "result": "< 5%"}
